Measurements gathered from unrelated publications.
Parts stem from different laboratories: compare values within a part only.

Series 1 — technique: protein-binding microarray; form: double-stranded DNA, one strand shown; sample: in vitro; concentration: 940 nM top; notes: 60-bp whole probe; added: salmon DNA 0.4 mg/ml; baseline: random background probes; reading: higher = stronger binding; shared flanks, not repeated: GCCTAGCAC … GTCTTGATTCGCTTGACGCTGCTG
Target: Interferon regulatory factor 5, full length, phosphomimetic (IRF5, Homo sapiens, UniProt Q13568-2, residues 1-514, S451D/S453D/S456D/S462D)
Strand	fitted relative affinity
TTAGAACTGGGGTATCGATTCGTGCTA	2.57 z-score
TCACAAGTCTTGTTTTACACTGTGCTA	0.382 z-score
TTAGGTTTCCTTTTCCGTTAGTGCTAG	2.55 z-score
TTAGGTTTCGGGTCCGGTTAGTGCTAG	10.3 z-score
GACGATATCGGTTATCGAGACGTGCTA	0.665 z-score
TTAGGAATCGGGTTTCGGTTAGTGCTA	6.42 z-score
TTAGGTACCGGTCTCGGTTAGTGCTAG	2.47 z-score
TTAGGACTGGACACTGCGTTAGTGCTA	-0.441 z-score
TTAGGTATCCTACTGCTTCAGTGCTAG	0.0146 z-score
TTAGGTTCCCTTTTCATTTAGTGCTAG	1.09 z-score
TTAGGACTGGGGTTTTGGTTAGTGCTA	0.533 z-score
CTTGCTTCCTAATTCTCTTTGTGCTAG	1.37 z-score
GACGAACTGAGTCTGGAGACGTGCTAG	-0.574 z-score
GACGGTCTCCTTATCCCGACGTGCTAG	0.809 z-score
TCAGGTCTGGATGTGCCACTGTGCTAG	-0.387 z-score
TCAACTTTCTTTTTTTCACTGTGCTAG	2.26 z-score
GTGTTCTGGGCAGCAGAGGGGTGCTAG	-0.576 z-score
TCAACTCCAGTTCTGGGACTGTGCTAG	-0.502 z-score
GACGATTTCGGGACTGGCGACGTGCTA	0.0963 z-score

Series 2 — technique: RNA Bind-n-Seq; form: RNA; sample: in vitro; concentration: 365 nM; baseline: no-protein control; reading: higher = stronger binding
Target: RNA binding protein fox-1 homolog 2, RRM domain, GST-SBP tag (RBFOX2, Homo sapiens, UniProt O43251-10, residues 100-194)
Notes: natural RNA segment, single round, ends assumed
Shared flanks, not repeated: GGGAGUUCUACAGUCCGACGAUC … UGGAAUUCUCGGGUGCCAA
Construct (chain): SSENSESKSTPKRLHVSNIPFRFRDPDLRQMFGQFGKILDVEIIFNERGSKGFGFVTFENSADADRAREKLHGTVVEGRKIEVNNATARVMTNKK
Strand	RBNS enrichment (R)
GGUUGACCAGUAUUACUAUACAAUGUAAGUGUUUUAAAAAAUACGAAAGUAAUACUCUGCACCCCUUCCUACAAAGAUGAUAAAGCAGUCACUUCUGGCGCAUUUUAAUA	0.351
UGUCAGCUUUGGAUUGCUGGGGCCAGGCCCCAUGGAGGGUAUACUGAGGGGUCUAUAGGUUUGUGAUUAAAAUAAUAAAAGCUAGGCGUGUUUGAUGCGCUUUUAACUUU	0.981
CUUUCUUGGCUGUUUUAGAACAGGGUACACAGGAUCGCCACCUGCAACUGGUACUCGCUUCUUGGCUGCUGCUUCUGUUGUGAAAAGACGAGCCCAUGUUUCUGCAUGGA	0.772
UCCUAAGUUUUGGGGUUACCCUAUCUGCUUUGAGAGACAAAUACAAAAGCUAAAUGGAAGAGAUUCUUCUAACCUGUCCUUAUGGUAACUAAAUGCCGUCUUACAUUGAG	0.251
CGGUGCCCCUCCCCAUCUCCCCGUGCCUGUAUCUAAUAUAUAAAUAUAGAGAUGUGUAUAUGGAUGAGCCUGCCUCUGUCUGUGUAUGUCGACGCGACCCCAGCAUACCG	0.604
GCUUCUCUACGCUGAGCAAAGCCCACCUUUGACCCCAGCUGACUCUCUCCUGGGCAGGAAAGCCCUCCUAGGGGAGAUUUCCAGGAGAUGUGGCCUUGACGAGUUUCUUC	0.213
CUCAAUUAUUAAAUAAAAGAAUAUUUCUUAUUUCUGGGUCAAUAUAAGGUACUGACUUCUGAUGCAUAAUCACUUAAGCUAUGUGAGUUUAAACUGGUAUCUUUUCUUAG	0.626
AUCUCUGAAUCCUUUUAAUCUAGAGAAGGCAUUUCAUAUUUGGGGGCUAAGGUUUCCAGUCAGAUGAGGCAAACAGCAAGAGUAAGCAGUGUUACUUGCAGGUACUUUGG	0.512
GACUGGCCCUUCAAGGAGGUGGAAGUGGUUUUCUCUGUGUUUGAGUCAUUGAGUAUUGAAGCCAUGACCUGGACUUCUGAAGGCUGUGACUUCACUAGAGCUAAGACACU	0.715
GUGCAGUUUAAGGUUCAGGCAUGCAUUCUGGCUCAUAGUGGUUGAAAGUAAUUUAAAUUAGUGGGAAAGUAGCAUGCUUGCAUCACAUAGAGUGAGAUUGGUAUUCAUUU	0.653
CCUUCACGCUGUGGAAGCAGCCAAGGCACUUCCUCACCCCCUCAGCGCCACGGACCUCUCUGGGGAGUGGCCGGAAAGCUCCCGGGCCUCUGGCCUGCAGGGCAGCCCAA	0.334
UCUGAAGUAUAAGGAGAAAUGUAUGACCAGAUAGCAAUCCUGCUUUUAGAUAGUAUGCUCUUGAUUGGAACAAAUUUUCAUUUUUUUAAAAAUCUGCUAAACAUUUGCAA	1.71

Series 3 — technique: protein binding microarray; form: double-stranded DNA, one strand shown; sample: in vitro; concentration: not given; baseline: not given; reading: higher = stronger binding
Target: Histone acetyltransferase KAT6A, winged helix 1, GST fusion (KAT6A, Homo sapiens, UniProt Q92794, residues 1-85)
Notes: 8-mer, flanks averaged, mean of 2 arrays, mostly near background
Residues (chain): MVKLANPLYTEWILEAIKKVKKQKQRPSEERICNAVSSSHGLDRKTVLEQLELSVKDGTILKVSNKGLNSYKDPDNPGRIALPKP
Strand	E-score
AATTGACA	0.0102
ATCCGTTG	0.0603
GACTACAA	-0.0777
ACTTAGAC	-0.18
TCGAAAAA	-0.0359
GAACATAA	-0.165
ACCATGTC	0.0714
AGAACTGC	-0.095
CGCAAAAA	0.0886
AGTAAGAA	-0.0519
CCCTGCCA	-0.107
ACTAGACC	-0.123
ACTGTACC	0.0333
TGTCTAAA	-0.13
ACTAACTC	-0.195
CCGTCTAC	0.246
ACCGTCCA	0.162
AGCGGGAT	0.306
AATTGCGG	0.24
CCGTAGGA	0.199
TTCAAAAA	-0.239
AACGCAGC	-0.0551
AGGCGGGA	0.293
CTACTCTC	-0.159
TCAGTACA	-0.247

Series 4 — technique: universal PBM; form: double-stranded DNA, one strand shown; sample: in vitro; concentration: not given; reading: higher = stronger binding
Target: Sal-like protein 4, full length isoform B (SALL4, Homo sapiens, UniProt Q9UJQ4-2, residues 1-616)
Notes: 8-mer, flanks averaged, mean of replicates
Strand	E-score
CTTAACCA	0.0959
CGAGGGTA	-0.137
ATTGGGAA	0.0949
GTTTCGCA	-0.063
ACTGTAAC	0.0499
CGGATGCA	-0.12
GTCCGGCA	-0.191
AATTCTTC	0.19
GCAGAAAA	0.0517
AGGAGATC	-0.162
AATAGGAA	0.277
TAATCGGA	0.0826
AAGTCCCT	-0.0734
AAATCCGT	0.0505
TCAGCTGA	0.0579
ACAAGTGA	0.0884
GATCATCA	-0.0229
ACAAACCA	0.0117
CGAGGCTA	-0.0381
CGCAGGCG	-0.318
ACCCTGCT	-0.068
AATGTTAA	0.299
AATTACCA	0.271
CATCCGTC	-0.0441
ACACGCAT	0.0548

Series 5 — technique: protein-binding microarray; form: double-stranded DNA, one strand shown; sample: in vitro; concentration: not given; reading: higher = stronger binding
Target: Transcriptional repressor CTCF (CTCF, Homo sapiens, UniProt P49711, residues 1-727, full length assumed)
UniProt P49711, sequence (whole entry, looked up): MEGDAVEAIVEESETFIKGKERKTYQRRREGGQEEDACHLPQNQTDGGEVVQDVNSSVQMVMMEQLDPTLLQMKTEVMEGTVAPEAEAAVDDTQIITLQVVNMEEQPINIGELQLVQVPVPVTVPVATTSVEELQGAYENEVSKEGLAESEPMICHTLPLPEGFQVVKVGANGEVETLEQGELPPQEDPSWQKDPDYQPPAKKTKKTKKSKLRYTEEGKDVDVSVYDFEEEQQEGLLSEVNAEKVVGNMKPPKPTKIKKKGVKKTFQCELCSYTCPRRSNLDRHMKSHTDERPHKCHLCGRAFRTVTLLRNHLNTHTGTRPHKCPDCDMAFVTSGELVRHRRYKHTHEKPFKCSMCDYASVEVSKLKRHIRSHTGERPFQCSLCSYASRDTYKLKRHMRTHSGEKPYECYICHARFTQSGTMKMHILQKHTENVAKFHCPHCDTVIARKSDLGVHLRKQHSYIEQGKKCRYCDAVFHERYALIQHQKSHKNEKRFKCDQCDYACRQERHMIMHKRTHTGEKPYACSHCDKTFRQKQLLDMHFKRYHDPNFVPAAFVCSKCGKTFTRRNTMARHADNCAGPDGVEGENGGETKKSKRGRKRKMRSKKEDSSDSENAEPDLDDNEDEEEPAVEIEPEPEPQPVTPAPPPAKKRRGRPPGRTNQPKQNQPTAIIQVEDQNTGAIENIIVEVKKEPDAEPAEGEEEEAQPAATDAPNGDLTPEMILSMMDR
Notes: k-mer, scored over probes, only values ≥0.25
Strand	E-score
TAGTTAAA	0.256
AAATACCT	0.255
TAACGTTA	0.28
CGTACATA	0.275
AAACAACT	0.257
ATCGCGCA	0.252
CCTAATAA	0.277
AGATGTAT	0.336
AAATAATG	0.305
GCGCTTTA	0.353
ATGATACA	0.27
CTATTGTA	0.257
AATAACAG	0.256
AAATACGA	0.296
ATTACTAC	0.26
TACATACA	0.363
AGTAAAAT	0.269

Series 6 — technique: RNA Bind-n-Seq; form: RNA; sample: in vitro; concentration: 200 nM; notes: whole 134-nt RNA, ends assumed; added: 150 mM KCl; baseline: input library; reading: higher = stronger binding
Target: Fragile X messenger ribonucleoprotein 1, C-terminal low-complexity region (Fmr1, Mus musculus, UniProt P35922)
Shared flanks, not repeated: GGGAGUUCUACAGUCCGACGAUC … UGGAAUUCUCGGGUGUCAAGG
Strand	log2 enrichment
UCCUCAAGUCCUGUGCUACACAUCGUAUGUACCGAAUCGGGCGGCGGCGGGAAAGUAUUAUGUUACGCCGUUCGGAUCUGCACUUCCAGC	-0.17
CAAGUCCUGUGCUACACAUCGUAUGUACCGAAUCGGGAAAGGGGAAAGGGGAAAGGAAAGUAUUAUGUUACGCCGUUCGGAUCUGCACUU	-0.0043
GCAGGAAGUAAAAACAAAUGGAAAUGCUUCGGAUAGUGGCAGGGGUGGGGGUUGCUAAGGAGAGGGUGGGAUGGGAGUGGGUAAAGAGUU	0.158
AGUGACCAUUUUAGUUAAAUUUUGUUCCUCUUCCCCCUUUUCACUUUCCUGGAAGAUCGAUGUCCCGAUCAGGAAGGUAGAGAGUUUUCC	-0.0609
GGCUGCUGGAGUGCCGUGAGCAGGCCGCGGGAACGUCGCCGUCACCUUGUCUCGGGGCCUCGGCGCUGCUUCCCGCCAAAACACGUUUAC	-1.1
CACAGACAACACGCAAAAACACAGACACAGAGGGAAGGGGUUGGGAUGGGGACAGGGUGCACAGCAGGGCGGGGUAGGACCCCAGCCCCU	1.2
UCCUCAAGUCCUGUGCUACACAUCGUAUGUACCGAAUCGGCGGGCGGCGGGAAAGUAUUAUGUUACGCCGUUCGGAUCUGCACUUCCAGC	-0.191
ACCAUGCAGGUGGGCAUCGUUGGGAAGUGGGGCAAGGGGGGGAUAGGGAGGGGGGUAACACUUUGGGAACAGGUGGUCCCAGGUCGUUUC	0.754
CAAGUCCUGUGCUACACAUCGUAUGUACCGAAUCGGGAAAGGGGAAAGGAAAGGGGAAAGUAUUAUGUUACGCCGUUCGGAUCUGCACUU	0.495
ACCAUGCAGGUGGGCAUCUUUGGGAAGUGGGGCAAGGGGGGGAUAGGGAGGGGGGUAACACUUUGGGAACAGGUGGUCCCAGGUAAAUUC	0.692
GCAGGAAGUAAAAACAAAUGGAAAUGCUUCGGAUAGUGGCAGGGGUGGGGGUUGCUAAGGAAAGGGUGGGAAAGGAGUGGGUAAAGAGUU	0.136
UUUUACAACCCCAAUUUAAAGAAAGUUGUAGAGGCCCACAAGAUCGUUCUCUGCGCUGUAAGCCAUGUUUUCAUGCUGCUUUUCAAUGUG	-1.02
AAGUCCUGUGCUACACAUCGUAUGUACCGAAUCGGAAAAAGGUUUGGAAAAAAAGGAAAGUAUUAUGUUACGCCGUUCGGAUCUGCACUU	-1.33
CUCAAGUCCUGUGCUACACAUCGUAUGUACCGAAUCGGGGCGGGGCGGGCGGGAAAGUAUUAUGUUACGCCGUUCGGAUCUGCACUUCCA	1.01

A few entries again (series 1):
Strand	fitted relative affinity
TTAGGTTTCGGGTCCGGTTAGTGCTAG	10.3 z-score
CTTGCTTCCTAATTCTCTTTGTGCTAG	1.37 z-score
TCAACTCCAGTTCTGGGACTGTGCTAG	-0.502 z-score
GTGTTCTGGGCAGCAGAGGGGTGCTAG	-0.576 z-score
TTAGGACTGGGGTTTTGGTTAGTGCTA	0.533 z-score
TCAACTTTCTTTTTTTCACTGTGCTAG	2.26 z-score
TTAGGAATCGGGTTTCGGTTAGTGCTA	6.42 z-score
TTAGGTTTCCTTTTCCGTTAGTGCTAG	2.55 z-score
GACGATTTCGGGACTGGCGACGTGCTA	0.0963 z-score
